Assay results collected from several papers.
Several values in a cell are separate wells, animals, samples, runs or records. ± gives the spread as reported.

O=C(N[C@H](Cc1c[nH]c2ccccc12)C(=O)Nc1ccncc1)c1ccc(-c2cc(C(F)(F)F)ccc2F)cc1F  concentration (Swiss Webster mouse, female, heart; oral, 50 mg/kg, 8 h, 20% Kolliphor vehicle): 17.3 µM
CO[C@H]1C[C@@H]2CC[C@@H](C)[C@@](O)(O2)C(=O)C(=O)N2CCCC[C@H]2C(=O)O[C@H]([C@H](C)C[C@@H]2CC[C@@H](OC(=O)NCCOCCOCCOCCOCCOCCOCCOCCOCCC(=O)N3CCc4cc(Cn5nc(-c6ccc7oc(N)nc7c6)c6c(N)ncnc65)ccc4C3)[C@H](OC)C2)C[C@@H](O)[C@H](C)/C=C(\C)[C@@H](O)[C@@H](OC)C(=O)[C@H](C)C[C@H](C)/C=C/C=C/C=C/1C  Tmax (human, plasma; intravenous, 6 mg, cycle 1 day 1, arithmetic mean): 58.8 min
COc1ccc2c(c1)CN(C(=O)CCN1CCC(Cc3ccccc3)CC1)CC[S@@+]2[O-]  systolic blood pressure (telemetry; conscious male beagle dogs; intravenous, NG, 4 h): 143 ± 17 mmHg
CCOCc1nc(O)c(-c2nnc(Cc3ccc(Cl)cn3)o2)c(O)c1-c1c(OC)cccc1OC  steady-state plasma concentration (rat, plasma; subcutaneous infusion, 3 mg/kg/day, day 7 after surgery): 2690 nM
CCCC[C@H](NC(=O)[C@@H](NC(=O)[C@H](CCC(=O)O)NC(=O)CNC(=O)[C@@H](NC(=O)[C@H](Cc1ccccc1)NC(=O)[C@H](C)NC(=O)[C@H](CCCCN)NC(=O)CNC(=O)[C@]1(C)CCCC=CCCC[C@](C)(NC(=O)[C@H](Cc2c[nH]cn2)NC(=O)[C@H](CC(C)C)NC(=O)[C@H](Cc2ccccc2)NC(=O)[C@H](CCCCN)NC(=O)CNC(=O)[C@@H](NC(=O)CN)[C@@H](C)CC)C(=O)N[C@@H](C)C(=O)N[C@@H](CCCCN)C(=O)N[C@@H](CCCCN)C(=O)N1)C(C)C)[C@@H](C)CC)C(=O)N[C@@H](CC(N)=O)C(=O)N[C@@H](CO)C(N)=O  retention time (HPLC C18 column): 14 min
O=C(Nc1nc2cccc(-c3ccc(CN4CCS(=O)(=O)CC4)cc3)n2n1)C1CC1  treatment-emergent adverse events (refers to: arthropod sting allergy; rheumatoid arthritis patients; oral, 30 mg once daily, 4 weeks, any relatedness): 0%
CCCC[C@H]1CC[C@H](c2ccc(C#N)cc2)CC1  fetal accumulation (Sprague-Dawley rat, female, fetus; 5000 ng/mL in perfusate, 50 (unit not given), high dose, mixture of 21 LCMs): 1.53 ± 1.35 ng/g
CN1C[C@H](COc2nccc3c(NCc4ccco4)cc(Cl)nc23)OC1=O  adverse necropsy findings (rat Crl:CD(SD) male; oral, 1000 mg/kg, single dose): negative
COc1ncc(-c2nc3c(n2C(C)C)[C@H](c2ccc(Cl)cc2)N(c2cc(Cl)cn(C)c2=O)C3=O)c(OC)n1  median Tmax (human patients, plasma; oral, 250 mg, high-dose arm, cycle 1 day 1): 180 min
C=C(NC(=O)c1nccc(OC)c1O)C(=O)O[C@@H](C)[C@H](O)[C@@H](Cc1ccccc1)C(=O)O  share of TRR (lactating goat, female, kidney; oral, 21.3 mg/kg bw/day, 5 days): 11 % TRR
NCc1cc2c(cc1F)C(=O)N(C1CCC(=O)NC1=O)C2 (stereo not drawn)  half-life (male Cynomolgus monkey, whole blood; without inhibitor): 7.7 min
Cc1cc(-c2ccc3cc[nH]c(=O)c3c2)ccc1O[C@H]1O[C@H](CO)[C@@H](O)[C@H](O)[C@@H]1O  Vss (Sprague-Dawley rat, male, plasma; intravenous, 3 mg/kg): 8.37 L/kg and 4.79 L/kg
CC1(C)CCC(CN2CCN(c3ccc(C(=O)NS(=O)(=O)c4ccc(NCC5CCOCC5)c([N+](=O)[O-])c4)c(Oc4cnc5[nH]ccc5c4)c3)CC2)=C(c2ccc(Cl)cc2)C1  dose-adjusted solubility (FaSSIF; literature solubility over dose): 3.37e-07 mL⁻¹
CNCc1ccc(-c2[nH]c3cc(F)cc4c3c2CCNC4=O)cc1  neutropenia incidence (human patients; oral, 600 mg twice daily, grade 5): 0%
C=CC(=O)Nc1cc(Nc2nccc(-c3cn(C)c4ccccc34)n2)c(OC)cc1N(C)CCN(C)C  recovery (storage stability; human plasma; 5 h, on ice, LLOQ level): 95.6%
